Published values collected from several papers.
Compare with care: the assays were run in different laboratories. Several values in a cell are separate wells, animals, samples, runs or records. ± gives the spread as reported. ≈ marks a conversion by molar mass, not a printed value.

With `C#Cc1ccc(O)c(C=NNC(=O)c2ccc(Br)cc2)c1` the FICI was 2 (Candida albicans; A39; unit not given, together with: caspofungin; lower = more synergy).
`C[C@H]1[C@@H](O)O[C@@H]2O[C@@]3(C)CC[C@H]4[C@H](C)CC[C@@H]1[C@@]24OO3` has an EC50 of 27.4 ± 6.8 nM (Plasmodium falciparum; parasite growth, SYBR Green; 3D7 wild type; 72 h).
With `OC(CCN1CCCCC1)(c1ccccc1)C1CCCCC1` (stereo not drawn) the IC50 was 2510 nM (Plasmodium falciparum; W2).
`CC(C)[C@@H]1NC(=O)[C@@H](C(C)C)NC(=O)[C@H](C)NC(=O)[C@H](CO)NC(=O)[C@H](Cc2c[nH]c3ccccc23)NC(=O)[C@@H](Cc2ccc(O)cc2)NC(=O)[C@H](CCCN)NC(=O)[C@H](Cc2c[nH]c3ccccc23)NC1=O` gave an IC90 of > 16 µg/mL (Naegleria fowleri; trophozoites).
With `Nc1cc(Oc2ccccc2)ccc1-c1noc(-c2ccc(O)cc2)n1` the inhibition was 14 to 39% (Clostridioides difficile; spore germination; ATCC 43255; 45 µM, 1 h).
`C#Cc1ccc(O)c(C=NNC(=O)c2ccc(Br)cc2Br)c1` has an FICI of 0.92 (Cryptococcus neoformans; H99; unit not given, together with: fluconazole; lower = more synergy).
With `NCc1ccc(-c2nc(-c3ccc(OC4CCC4)cc3)no2)cc1` the inhibition was 12 to 33% (Clostridioides difficile; spore germination; ATCC 43255; 45 µM, 1 h).
The IC50 of `C[C@@H](O)[C@@H]1NC(=O)[C@H](Cc2ccccc2)NC(=O)[C@@H](Cc2ccccc2)NC(=O)[C@H]([C@@H](C)O)NC(=O)[C@@H](CCCN)NC(=O)[C@H](CCCNC(=N)N)NC(=O)[C@@H](CCCN)NC1=O` is reported as > 16 µg/mL (Naegleria fowleri; trophozoites).
Under “MIC fold change”, `Cc1ccc2[nH]c3c(c2c1)CCCC3NCCc1ccc(Cl)cc1` (stereo not drawn) is recorded as 4 (Streptococcus pneumoniae; concentration not given, 10% fetal bovine serum; baseline: without serum).
`CN(C)c1nc(NCc2cccc(C(F)(F)F)c2)c(/N=N/c2ccc(Cl)cc2)c(N(C)C)n1` has a mortality of 100% (Ostrinia furnacalis; leaf dipping; 500 mg/L, 96 h).
`C[C@@H]1CN(c2ccnc3ccc(Sc4ccc(Oc5ccccc5)cc4)cc23)C[C@H](C)N1` has an EC50 of 600 ± 45 nM (Plasmodium falciparum; parasite growth, SYBR Green; 3D7 wild type; 72 h).
`COC(=O)N[C@H](C(=O)N1CCC[C@H]1c1ncc(-c2ccc(-c3ccc(-c4cnc([C@@H]5CCCN5C(=O)[C@@H](NC(=O)OC)C(C)C)[nH]4)cc3)cc2)[nH]1)C(C)C` gave a combination index of 0.75 and 0.64 (hepatitis C virus; HCV replicon; 75% effect level, together with: IFN-α, ratio 2.5:1).
For `CC(C)[C@H]1NC(=O)[C@H](CCCNC(=N)N)NC(=O)CNC(=O)[C@@H](Cc2c[nH]c3ccccc23)NC(=O)[C@H](CCCCN)NC(=O)[C@@H](CCCN)NC1=O`, the IC90 was > 16 µg/mL (Naegleria fowleri; trophozoites).
`CC[C@H](C)[C@H](NC(=O)[C@H](C)NC(=O)[C@H](CCCCN)NC(=O)[C@H](CC(C)C)NC(=O)[C@H](C)NC(=O)[C@@H](NC(=O)[C@H](Cc1c[nH]cn1)NC(=O)[C@H](CC(C)C)NC(=O)[C@@H](NC(=O)[C@@H](NC(=O)[C@H](CCCCN)NC(=O)[C@H](C)NC(=O)[C@H](C)NC(=O)[C@H](CO)NC(=O)[C@H](CCCCN)NC(=O)[C@H](Cc1ccccc1)NC(=O)[C@@H](NC(=O)[C@H](CCCCN)NC(=O)[C@H](CC(C)C)NC(=O)[C@H](Cc1ccccc1)NC(=O)[C@H](CO)NC(=O)[C@H](CCCCN)NC(=O)[C@H](Cc1c[nH]c2ccccc12)NC(=O)[C@H](CCCCN)NC(C)=O)[C@@H](C)O)[C@@H](C)O)C(C)C)[C@@H](C)O)C(=O)N[C@@H](CO)C(=O)N[C@@H](CO)C(N)=O` has an MIC range of 2 µg/mL (≈ 0.682 µM) (Klebsiella pneumoniae; ATCC 1706).
`C#Cc1ccc(O)c(C=NNC(=O)c2cc(Br)cc(Br)c2O)c1`: “time to complete kill” 3 h (Cryptococcus neoformans; time-kill; H99; concentration not given).
For `Cc1ccccc1C(=O)NN=Cc1ccc(O)c(Br)c1`, the FIC index was 0.38 (Cryptococcus neoformans; together with: fluconazole; lower = more synergistic).
`CC(C)[C@@H]1NC(=O)[C@@H](CCCCN)NC(=O)[C@H](CCCCN)NC(=O)[C@@H](CCCN)NC(=O)[C@H](C)NC(=O)[C@H](Cc2c[nH]c3ccccc23)NC(=O)[C@@H](Cc2ccccc2)NC1=O` has an IC90 of > 16 µg/mL (Acanthamoeba castellanii; trophozoites).
`C[C@@H](O)[C@H]1C(=O)N2C(C(=O)O)=C(S[C@@H]3CN[C@H](C(=O)N(C)C)C3)[C@H](C)[C@H]12` — result for “bacterial burden, mean”: 8.4 log10 CFU/thigh (Klebsiella pneumoniae; NDM-producing, neutropenic BALB/c mouse, thigh infection, thigh; dose not given, 6 h).
`CNC(=O)c1cc(Cl)cc(C)c1NC(=O)c1cc(Br)nn1-c1ncccc1Cl` has a larval survival of 25.6% (Spodoptera litura; Brassica oleracea field; 25 ppm, 72 h, 5% water-dispersible granule).
The IC50 of `CC(C)(C)[C@]1(O)CCN2C[C@H]3c4ccccc4CCc4cccc(c43)[C@@H]2C1` is reported as 5010 nM (Plasmodium falciparum; GB4).
The IC90 of `NCCC[C@@H]1NC(=O)[C@@H](CCCN)NC(=O)[C@H](Cc2ccccc2)NC(=O)[C@@H](Cc2ccccc2)NC(=O)[C@H](Cc2ccccc2)NC(=O)[C@@H](CCCN)NC1=O` is reported as > 16 µg/mL (Acanthamoeba castellanii; trophozoites).
For `CC1(C)SC2C(NC(=O)C(NC(=O)C3=C(O)C(Cc4ccccc4)NC3=O)c3ccccc3)C(=O)N2C1C(=O)O` (stereo not drawn), “zone of inhibition” read 16 mm (Escherichia coli; ΔtolC JW5503-1; 200 µM, together with: 30 µg/mL 2,2'-bipyridyl).
The IC50 of `COc1ccccc1N1CCN(CCCCNC(=O)c2ccc3ccccc3c2)CC1` is reported as 6310 nM (Plasmodium falciparum; D10).
`CN[C@H](CC(C)C)C(=O)N[C@H]1C(=O)N[C@@H](CC(N)=O)C(=O)N[C@H]2C(=O)N[C@H]3C(=O)N[C@H](C(=O)N[C@H](C(=O)O)c4cc(O)cc(O)c4-c4cc3ccc4O)[C@H](O)c3ccc(c(Cl)c3)Oc3cc2cc(c3O[C@@H]2O[C@H](CO)[C@@H](O)[C@H](O)[C@H]2O[C@H]2C[C@](C)(N)[C@H](O)[C@H](C)O2)Oc2ccc(cc2Cl)[C@H]1O` has a biofilm inhibition of 1.81% (Staphylococcus aureus; ATCC 33591 MRSA; 4×MIC).
For `CC(C)[C@@H]1NC(=O)[C@@H](CCCCN)NC(=O)[C@H](CCCN)NC(=O)[C@@H](CC(=O)O)NC(=O)[C@H](C)NC(=O)[C@H](Cc2c[nH]c3ccccc23)NC(=O)[C@@H](Cc2ccccc2)NC1=O`, the IC50 was > 16 µg/mL (Acanthamoeba castellanii; trophozoites).
With `C#Cc1ccc(O)c(C=NNC(=O)c2ccc(C3(C(F)(F)F)N=N3)cc2)c1` the FICI was 0.98 (Cryptococcus neoformans; H99; unit not given, together with: amphotericin B; lower = more synergy).
`CN[C@H](CC(C)C)C(=O)N[C@H]1C(=O)N[C@@H](CC(N)=O)C(=O)N[C@H]2C(=O)N[C@H]3C(=O)N[C@H](C(=O)N[C@H](C(=O)O)c4cc(O)cc(O)c4-c4cc3ccc4O)[C@H](O)c3ccc(c(Cl)c3)Oc3cc2cc(c3O[C@@H]2O[C@H](CO)[C@@H](O)[C@H](O)[C@H]2O[C@H]2C[C@](C)(N)[C@H](O)[C@H](C)O2)Oc2ccc(cc2Cl)[C@H]1O` has an MIC90 of 0.5 µg/mL (≈ 0.345 µM) (Streptococcus pneumoniae).
`O=C(NN=Cc1ccc(O)c(Br)c1)c1cccc(Br)c1` — result for “MIC in combination”: 0.15 µg/mL (Cryptococcus neoformans; concentration not given, together with: amphotericin B).
For `COCC(C)n1c(SCC(=O)Nc2cc(C(F)(F)F)ccc2Cl)nc2ccccc2c1=O` (stereo not drawn), the EC50 was 57.5 ± 9.3 nM (Plasmodium falciparum; parasite growth, SYBR Green; 3D7 wild type; 72 h).
`Cc1c2c(nn1C)CSCc1cc(n(C)n1)CSc1cc(c3ccccc3c1)OCCCc1c(C(=O)O)n(C)c3c-2c(Cl)ccc13` — result for “log2 fold change”: 2.72 (Staphylococcus aureus; label-free proteomics, refers to: acyP; SA113; concentration not given; baseline: untreated).
With `Cc1ccc2c(c1)CC[C@@](CCN(C)CCCc1nc3ccccc3[nH]1)(OC(=O)C1CC1)[C@H]2C(C)C` the IC50 was 5010 nM (Plasmodium falciparum; D10).
For `CC(C)[C@H]1NC(=O)[C@@H]([C@H](C)O)NC(=O)[C@H](CO)NC(=O)[C@@H](CCCNC(=N)N)NC(=O)CNC(=O)[C@H](Cc2ccccc2)NC(=O)[C@H]([C@@H](C)O)NC1=O`, the IC90 was > 16 µg/mL (Naegleria fowleri; trophozoites).
`COc1ccccc1OCC(O)CN1CCN(CC(=O)Nc2c(C)cccc2C)CC1` (stereo not drawn) has an Emax of 17.4% (Human coronavirus OC43; virus-induced cell killing; MRC-5).
`Cc1ccc2[nH]c3c(c2c1)CCCC3NCCCCc1ccccc1` (stereo not drawn): “MIC fold change” 4 (Streptococcus pneumoniae; concentration not given, 10% fetal bovine serum; baseline: without serum).
With `COc1cc(N[C@H](C(=O)c2c[nH]c3ccc(OC(F)(F)F)cc23)c2ccc(Cl)cc2OC)cc(S(C)(=O)=O)c1` the inhibition was 21.2% (dengue virus 2; viral infection, luciferase reporter virus; 0.03 nM, 48 h).
`Cc1[nH]c(C)c(-c2ccc(OCCn3cnc(Cl)c3Cl)cc2)c(=O)c1Br` gave an EC50 ratio of 3.3 (Plasmodium falciparum; parasite growth, SYBR Green; 72 h; baseline: 3D7-E182D over 3D7).
For `COCC(=O)O[C@]1(CCN(C)CCCc2nc3ccccc3[nH]2)CCc2cc(F)ccc2[C@@H]1C(C)C`, the IC50 was 7940 nM (Plasmodium falciparum; D10).
`Cn1c(=O)ccc2ccc(F)c(CCNC[C@H]3CN(c4cnc5c(n4)NC(=O)CO5)C(=O)O3)c21` gave an MIC50 of 0.03 µg/mL (≈ 0.064 µM) (Streptococcus pneumoniae).
For `OC(CN1CCC(Cc2ccc(F)cc2)CC1)c1ccc(Cl)cc1` (stereo not drawn), the IC50 was 316 nM (Plasmodium falciparum; GB4).
With `COc1ccccc1NC(=O)CSc1nc2cccnc2n1-c1ccccc1OC` the EC50 was 414 ± 57 nM (Plasmodium falciparum; parasite growth, SYBR Green; 3D7 wild type; 72 h).
`COc1cc2nc(N3CCN(C(=O)C4COc5ccccc5O4)CC3)nc(N)c2cc1OC` (stereo not drawn) has an IC50 of 3160 nM (Plasmodium falciparum; 3D7).
Under “LS mean viral load change”, `CS(=O)(=O)CCCn1c(Cn2c(=O)n(CC(F)(F)F)c3ccncc32)cc2cc(Cl)ccc21` is recorded as -2.24 log10 copies/mL (respiratory syncytial virus; RT-qPCR; hospitalized infants 1-24 months, nasal swab; oral, 9, 6 or 5 mg/kg daily, day 3, high dose by age cohort; baseline: baseline).
With `Nc1ncnc2c1ncn2[C@@H]1O[C@@H]2COP(=O)(O)O[C@H]3[C@@H](O)[C@H](n4cnc5c(=O)[nH]cnc54)O[C@@H]3COP(=O)(O)O[C@H]2[C@H]1O` the fold enrichment was 20.9 (West Nile virus; RNA sequencing Reactome analysis, refers to: Cell-extracellular matrix interactions (R-HSA-446353); HFF-1; concentration not given, downregulated pathways, together with: West Nile virus infection; baseline: WNV-infected without compound).
`Cc1cc(Cl)cc(S(C)(=O)=O)c1NC(=O)c1cc(Br)nn1-c1ncccc1Cl` has a mortality of 96.7% (Spodoptera litura; leaf-dip; third instar larvae; 12.5 ppm, 72 h).
`C=C(CN(C(=O)c1c(C(F)F)nn(C)c1F)C1CC1)c1ccc(Cl)cc1Cl` has a colony diameter of 15 mm and 14 mm and 13 mm and 12 mm (Alternaria solani; 1.56 mg/L).
`O=C(CNCC1CCCCC1)Nc1cc(C(F)(F)F)ccc1Cl` has an EC50 ratio of 8.6 (Plasmodium falciparum; parasite growth, SYBR Green; 72 h; baseline: 3D7-E182D over 3D7).
With `CC(C)[C@H]1NC(=O)[C@H](Cc2ccccc2)NC(=O)CNC(=O)[C@@H](Cc2ccccc2)NC(=O)[C@H](CCCCN)NC(=O)[C@@H](CCCNC(=N)N)NC1=O` the IC50 was > 16 µg/mL (Naegleria fowleri; trophozoites).
The EC50 ratio of `COC(=O)C1=CNC=C(C(=O)OC)C1c1ccc(Cl)c([N+](=O)[O-])c1` is reported as 1.8 (Plasmodium falciparum; parasite growth, SYBR Green; 72 h; baseline: 3D7-E182D over 3D7).
The IC50 of `CCCC1O[C@@H]2C[C@H]3[C@@H]4CCC5=CC(=O)C=C[C@]5(C)[C@H]4[C@@H](O)C[C@]3(C)[C@]2(C(=O)CO)O1` (stereo partly drawn) is reported as 3160 nM (Plasmodium falciparum; GB4).
`Cc1sc(CNCCCNc2cc(=O)c3ccccc3[nH]2)c(I)c1C` gave an EC50 of 546 ± 220 nM (Plasmodium falciparum; parasite growth).
`CN(C)c1nc(NCc2cccc(F)c2)c(/N=N/c2ccc(Cl)cc2)c(N(C)C)n1` has a mortality of 66.7 ± 5.8% (Ostrinia furnacalis; leaf dipping; 50 mg/L, 96 h).
